Assay results of several laboratories.
Lines come from different studies, so protocols differ.
UniProt Q00534, sequence (whole entry, looked up): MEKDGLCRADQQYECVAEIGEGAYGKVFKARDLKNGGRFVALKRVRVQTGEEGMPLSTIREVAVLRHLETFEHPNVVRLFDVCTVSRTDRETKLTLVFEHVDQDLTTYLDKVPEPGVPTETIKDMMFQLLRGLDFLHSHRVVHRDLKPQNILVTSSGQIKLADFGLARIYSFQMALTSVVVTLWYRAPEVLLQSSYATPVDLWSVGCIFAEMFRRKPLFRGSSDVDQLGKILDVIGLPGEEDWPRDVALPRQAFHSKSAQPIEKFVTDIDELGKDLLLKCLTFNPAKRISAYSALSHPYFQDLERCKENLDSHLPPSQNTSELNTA
UniProt P36507, sequence (whole entry, looked up): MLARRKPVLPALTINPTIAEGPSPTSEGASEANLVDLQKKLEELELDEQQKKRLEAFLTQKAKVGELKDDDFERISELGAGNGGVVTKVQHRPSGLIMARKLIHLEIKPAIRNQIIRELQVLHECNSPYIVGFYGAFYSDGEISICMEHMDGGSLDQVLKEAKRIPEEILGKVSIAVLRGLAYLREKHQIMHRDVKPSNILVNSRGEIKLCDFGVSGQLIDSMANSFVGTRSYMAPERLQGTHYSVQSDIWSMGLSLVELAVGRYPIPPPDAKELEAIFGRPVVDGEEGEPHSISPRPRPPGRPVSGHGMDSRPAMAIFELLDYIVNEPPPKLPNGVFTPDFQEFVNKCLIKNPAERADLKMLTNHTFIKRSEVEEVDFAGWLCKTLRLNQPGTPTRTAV
UniProt Q13976, sequence (whole entry, looked up): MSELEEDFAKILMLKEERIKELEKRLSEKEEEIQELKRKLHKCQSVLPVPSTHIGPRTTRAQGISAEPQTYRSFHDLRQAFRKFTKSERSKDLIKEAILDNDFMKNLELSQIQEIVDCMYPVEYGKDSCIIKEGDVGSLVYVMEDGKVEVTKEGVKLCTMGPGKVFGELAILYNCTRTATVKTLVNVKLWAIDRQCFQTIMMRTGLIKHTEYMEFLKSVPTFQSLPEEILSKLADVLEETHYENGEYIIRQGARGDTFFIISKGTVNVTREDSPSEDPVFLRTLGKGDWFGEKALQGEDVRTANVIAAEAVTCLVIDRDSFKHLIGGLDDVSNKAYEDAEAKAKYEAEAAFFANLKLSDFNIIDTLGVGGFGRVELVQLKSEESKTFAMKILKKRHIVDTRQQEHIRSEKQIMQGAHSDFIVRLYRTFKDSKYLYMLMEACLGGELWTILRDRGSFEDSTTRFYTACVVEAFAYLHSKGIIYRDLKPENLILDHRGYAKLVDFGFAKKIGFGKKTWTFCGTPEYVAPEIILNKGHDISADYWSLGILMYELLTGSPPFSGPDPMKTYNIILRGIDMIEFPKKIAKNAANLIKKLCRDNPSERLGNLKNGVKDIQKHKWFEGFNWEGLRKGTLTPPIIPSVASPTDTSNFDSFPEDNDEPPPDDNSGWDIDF

Cc1cccc(N(O)N=Nc2ccc(S(=O)(=O)Nc3cc(C)on3)cc2)c1 — inhibition (ABTS scavenging; 60 µg/mL): 45.9%
CCC(C)(C)C1CCc2[nH]c3ccccc3c(=O)c2C1 (stereo not shown) — IC50 (HEK293; cell growth or viability): > 10 µM
O=C(CCCC[C@H]1SC[C@H]2NC(=O)N[C@H]21)NCCOCCOCCOc1cccc(Cn2nc(-c3ccc(CO)o3)c3ccccc32)c1 — IC50 (RBE; cell growth or viability, ATP luminescence): 4.47 µM
Cc1csc(-c2nnc(Nc3ccc(Oc4ncccc4-c4ccnc(N)n4)cc3)c3ccccc23)c1 — IC50 (MB002; cell growth or viability; 7 days): 0.0012 µM
COC(=O)CN=c1scc(-c2ccccc2)n1-c1ccccc1OC — IC50 (Panc 02.03; cell growth or viability, MTT; 72 h): 13.4 µM
COc1cc2nccc(Oc3ccc(NC(=O)C4(C(=O)Nc5ccc(F)cc5)CC4)cc3)c2cc1OC — IC50 (HD-MB03; cell growth or viability; 7 days): > 10 µM
COc1ccc2c(=O)c(C3CCC(c4ccc(Cl)cc4)CC3)c(C)[nH]c2c1 (stereo not shown) — IC50 (HEK293; cell growth or viability): > 10 µM
C=CC(=O)N1CCC(COCC(=O)N2CCN(c3nc(-c4cnc(N)nc4C(F)F)nc(N4CCOC[C@@H]4C)n3)CC2)CC1 — remaining binding (MAP2K2 (Homo sapiens, UniProt P36507); binding, competition with immobilised ligand; 1 µM): 99%
CCC(C)n1ncn(-c2ccc(N3CCN(c4ccc(OCC5COC(Cn6cncn6)(c6ccc(Cl)cc6Cl)O5)cc4)CC3)cc2)c1=O (stereo not shown) — IC50 (MB002; cell growth or viability; 7 days): 0.372 µM
C=C(F)C(=O)N1CCN(c2nc(OC[C@@H]3CCCN3C)nc3c2CCN(c2cccc4cccc(Cl)c24)C3)C[C@@H]1CC#N — IC50 (Calu-1; cell growth or viability, ATP luminescence): 0.0488 µM
NCc1ccc(-c2nn(Cc3ccccn3)c3cccnc23)o1 — IC50 (RBE; cell growth or viability, ATP luminescence): 3.09 µM
Cc1[nH]c(C)c(-c2ccc(OCc3ccc(F)cc3)cc2)c(=O)c1Br — IC50 (HEK293; cell growth or viability): > 10 µM
Cc1noc(NS(=O)(=O)c2ccc(N=NN(O)c3ccccc3)cc2)c1C — inhibition (ABTS scavenging; 180 µg/mL): 72.4%
COc1cc2c3c(n(CCCn4ccnc4)c(=O)c2cc1OC)-c1nc2c(cc1C3=O)OCO2 — IC50 (Kasumi 1; cell growth or viability, MTS; 72 h): > 2 µM
COc1cc(-c2cncc3c2CN(C)Cc2cc(N4CCNCC4)ccc2-3)cc(OC)c1OC — remaining activity (Cyclin-dependent kinase 6, with cyclin D3 (CDK6, Homo sapiens, UniProt Q00534); enzyme activity, inhibitor; 1 µM): 117%
CNc1ncc2c(/C=C/C(=O)N3CCC(OC)CC3)nn(Cc3cccc(C(F)(F)F)c3)c2n1 — remaining activity (PRKG1 (Homo sapiens, UniProt Q13976); enzyme activity, inhibitor, radiometric; 1 µM): 96%

A few entries again:
COc1cc2nccc(Oc3ccc(NC(=O)C4(C(=O)Nc5ccc(F)cc5)CC4)cc3)c2cc1OC — IC50 (HD-MB03; cell growth or viability; 7 days): > 10 µM
COc1ccc2c(=O)c(C3CCC(c4ccc(Cl)cc4)CC3)c(C)[nH]c2c1 (stereo not shown) — IC50 (HEK293; cell growth or viability): > 10 µM
